Published values of several laboratories.
A part holds a random share of what one study measured. Several values in a cell are separate wells, animals, samples, runs or records. Positions count from the first letter of the parent shown.

Set 1
Target: UDP-N-acetylglucosamine--peptide N-acetylglucosaminyltransferase 110 kDa subunit (OGT, Homo sapiens, UniProt O15294)
Sequence of UniProt O15294 (whole entry, looked up): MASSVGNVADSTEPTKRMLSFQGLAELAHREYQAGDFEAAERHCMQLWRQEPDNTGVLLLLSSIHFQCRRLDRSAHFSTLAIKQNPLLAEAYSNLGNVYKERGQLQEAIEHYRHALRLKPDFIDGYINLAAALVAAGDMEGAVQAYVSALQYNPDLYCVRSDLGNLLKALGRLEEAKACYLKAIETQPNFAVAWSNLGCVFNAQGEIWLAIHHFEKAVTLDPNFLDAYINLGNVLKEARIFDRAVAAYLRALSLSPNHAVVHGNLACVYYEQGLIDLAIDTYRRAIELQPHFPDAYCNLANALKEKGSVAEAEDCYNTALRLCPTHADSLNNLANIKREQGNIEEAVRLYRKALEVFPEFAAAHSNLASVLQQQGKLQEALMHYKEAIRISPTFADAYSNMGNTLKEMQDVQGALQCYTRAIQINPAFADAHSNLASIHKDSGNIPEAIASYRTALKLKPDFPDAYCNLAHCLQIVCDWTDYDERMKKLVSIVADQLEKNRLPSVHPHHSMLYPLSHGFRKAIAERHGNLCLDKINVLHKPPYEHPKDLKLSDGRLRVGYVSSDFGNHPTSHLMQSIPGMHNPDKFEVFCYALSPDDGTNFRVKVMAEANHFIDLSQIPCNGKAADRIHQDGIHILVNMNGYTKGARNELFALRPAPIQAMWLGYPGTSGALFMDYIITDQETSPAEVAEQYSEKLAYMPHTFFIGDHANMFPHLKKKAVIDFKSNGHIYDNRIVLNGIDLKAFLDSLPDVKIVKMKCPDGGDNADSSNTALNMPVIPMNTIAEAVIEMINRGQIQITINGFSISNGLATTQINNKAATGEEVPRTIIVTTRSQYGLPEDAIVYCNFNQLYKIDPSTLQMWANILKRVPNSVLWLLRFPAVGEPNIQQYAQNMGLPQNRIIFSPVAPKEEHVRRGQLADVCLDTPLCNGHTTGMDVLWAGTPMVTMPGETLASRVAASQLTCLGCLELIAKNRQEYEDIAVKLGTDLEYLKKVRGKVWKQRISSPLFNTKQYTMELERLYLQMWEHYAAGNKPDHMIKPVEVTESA
Effect on: binding
Method: phage display NGS
Molecule type: peptide
Concentration: concentration not given
Reference: input library
`HIHWTGESPSPHWVH`: “enrichment fold change” 2.49.
Under “enrichment fold change”, `SHKPHRASMPSALQF` is recorded as 2.36.
For `HQSPHHRTVEHQVT`, “enrichment fold change” read 5.
`THTHFYWQPHHRGV`: “enrichment fold change” 6.31.
For `QHYQHHSHDKSHPYE`, “enrichment fold change” read 4.15.
`HQLQIHHRSHLNDYP` — result for “enrichment fold change”: 5.04.
`NRYTETRHMHQVHHS` — result for “enrichment fold change”: 5.68.
Under “enrichment fold change”, `ANTLDYTPFYTIEY` is recorded as 1.83.

Set 2
Target: CCNA1, cyclin fold, Cln2 fusion (human)
Method: yeast growth competition, sequencing
Medium: yeast
Setting: strong parent motif
Reference: not given
Direction: higher = stronger binding
Parent: viral docking peptide; YKVKRRLVFGADD
For `V3L`, “normalised enrichment score” read 0.468.
Under “normalised enrichment score”, `F9N` is recorded as 0.517.
`F9I` — result for “normalised enrichment score”: 0.504.
Under “normalised enrichment score”, `V3Q` is recorded as 0.348.
Under “normalised enrichment score”, `F9A` is recorded as -0.0448.
`A11I` — result for “normalised enrichment score”: 1.33.
`D12F` — result for “normalised enrichment score”: 0.898.
Under “normalised enrichment score”, `R5I` is recorded as -0.00086.

Set 3
Target: vanadate, free oxyanion
Method: microfluidic competitive inhibition
Medium: in vitro, cell-free expressed
Concentration: not given
Setting: derived from inhibition constants, unchanged parent 676 nM
Direction: lower = stronger binding
Parent: PafA, mature enzyme, eGFP fusion (Elizabethkingia meningoseptica, UniProt Q9KJX5); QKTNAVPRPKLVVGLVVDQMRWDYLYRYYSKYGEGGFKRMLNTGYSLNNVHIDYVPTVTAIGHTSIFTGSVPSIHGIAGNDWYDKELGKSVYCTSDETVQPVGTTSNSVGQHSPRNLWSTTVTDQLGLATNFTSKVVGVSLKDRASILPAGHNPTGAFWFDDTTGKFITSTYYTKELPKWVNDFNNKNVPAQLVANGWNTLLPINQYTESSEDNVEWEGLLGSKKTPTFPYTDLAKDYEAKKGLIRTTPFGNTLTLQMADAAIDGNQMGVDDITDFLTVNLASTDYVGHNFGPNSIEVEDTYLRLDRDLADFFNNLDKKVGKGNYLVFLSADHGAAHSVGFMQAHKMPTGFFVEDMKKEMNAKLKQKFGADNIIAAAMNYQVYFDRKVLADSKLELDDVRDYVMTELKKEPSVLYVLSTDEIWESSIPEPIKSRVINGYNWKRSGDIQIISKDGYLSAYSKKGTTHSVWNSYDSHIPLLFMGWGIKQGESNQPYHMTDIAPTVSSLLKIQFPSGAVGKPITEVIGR
Under “oxyanion analog dissociation constant”, `K2V` is recorded as 629 nM.
Under “oxyanion analog dissociation constant”, `Y455V` is recorded as 882 nM.
`L305V`: “oxyanion analog dissociation constant” 609 nM.
`D84V` — result for “oxyanion analog dissociation constant”: 874 nM.
Under “oxyanion analog dissociation constant”, `E421V` is recorded as 695 nM.
Under “oxyanion analog dissociation constant”, `Y28V` is recorded as 823 nM.
`R386V` — result for “oxyanion analog dissociation constant”: 734 nM.
Under “oxyanion analog dissociation constant”, `D264V` is recorded as 650 nM.

Further values, each from its own experiment
The clonogenic survival of CNCc1ccc(-c2[nH]c3cc(F)cc4c3c2CCNC4=O)cc1 is reported as 0 and 0.0133 (RPE-1 BRCA2-/-; 0.25 µM, unit not given; reference: untreated).
